Measured values from different studies.
Every numbered part comes from another study and shows a few of its results, in no order. Positions count from the first letter of the parent shown.

Block 1
Target: Sal-like protein 4, full length isoform A (SALL4, Homo sapiens, UniProt Q9UJQ4, residues 1-1053)
UniProt Q9UJQ4, sequence (whole entry, looked up): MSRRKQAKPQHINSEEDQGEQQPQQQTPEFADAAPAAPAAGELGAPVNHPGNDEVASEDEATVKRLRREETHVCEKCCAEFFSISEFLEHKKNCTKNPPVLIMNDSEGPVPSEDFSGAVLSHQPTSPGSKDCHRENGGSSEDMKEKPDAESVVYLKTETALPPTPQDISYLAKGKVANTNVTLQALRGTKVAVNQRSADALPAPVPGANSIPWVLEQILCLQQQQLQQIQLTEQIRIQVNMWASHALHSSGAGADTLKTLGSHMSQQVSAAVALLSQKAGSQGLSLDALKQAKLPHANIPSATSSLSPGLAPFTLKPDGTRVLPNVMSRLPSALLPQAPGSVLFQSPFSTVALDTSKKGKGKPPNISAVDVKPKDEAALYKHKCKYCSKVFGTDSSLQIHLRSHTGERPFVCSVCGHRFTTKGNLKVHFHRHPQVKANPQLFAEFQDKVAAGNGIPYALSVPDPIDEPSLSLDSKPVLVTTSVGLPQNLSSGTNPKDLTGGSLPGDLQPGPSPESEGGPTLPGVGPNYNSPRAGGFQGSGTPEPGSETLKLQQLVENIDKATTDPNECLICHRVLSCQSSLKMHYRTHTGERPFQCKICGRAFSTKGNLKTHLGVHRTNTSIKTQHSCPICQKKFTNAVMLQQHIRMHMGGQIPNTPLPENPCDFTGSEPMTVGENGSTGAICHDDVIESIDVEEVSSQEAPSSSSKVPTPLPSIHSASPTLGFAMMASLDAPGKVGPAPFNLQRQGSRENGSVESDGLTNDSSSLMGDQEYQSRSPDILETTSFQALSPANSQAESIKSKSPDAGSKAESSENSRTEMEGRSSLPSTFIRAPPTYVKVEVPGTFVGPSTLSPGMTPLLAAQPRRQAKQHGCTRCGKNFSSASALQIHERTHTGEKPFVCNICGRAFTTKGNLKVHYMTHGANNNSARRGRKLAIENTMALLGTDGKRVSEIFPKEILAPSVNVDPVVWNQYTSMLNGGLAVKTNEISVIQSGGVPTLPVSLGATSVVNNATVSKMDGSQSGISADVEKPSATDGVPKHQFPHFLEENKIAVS
Method: universal PBM
Molecule type: double-stranded DNA, one strand shown
Sample: in vitro
Concentration: 600 nM
Setting: 8-mer, flanks averaged, mean of replicates
Reading: higher = stronger binding
| Oligonucleotide | E-score |
| --- | --- |
| AACACTAC | 0.148 |
| ATCTGGTA | 0.116 |
| CTTTGTTA | 0.264 |
| AGCCGAAT | -0.0488 |
| TGGTTAAA | 0.251 |
| GTTCCAAA | 0.154 |
| AGCCAGGG | -0.3 |
| AAAGACGT | 0.123 |
| GGTATGCA | -0.0605 |
| GCGGCCTA | -0.29 |
| CGCTCCTA | -0.0311 |
| CTACAGGA | 0.00636 |
| CGTATACG | 0.0483 |
| AGAGACTC | -0.0851 |
| CGTTATCC | 0.0474 |
| CATCTATC | 0.0722 |
| AAACGCCG | -0.0408 |
| ACAAAAAA | 0.318 |
| AAATGATG | 0.22 |
| GACTTATA | 0.3 |
| CCCCCCTA | -0.261 |
| GTCATCTA | 0.081 |
| GACGAATA | 0.188 |
| GTGCCACA | -0.238 |
| GTTCGATA | 0.151 |

Block 2
Target: Interferon regulatory factor 7, full length, phosphomimetic (IRF7, Homo sapiens, UniProt Q92985, residues 1-503, S101K/S471D/S472D/S475D/S476D/S477D/S483D/S484D/S487D)
UniProt Q92985, sequence (whole entry, unmodified, looked up): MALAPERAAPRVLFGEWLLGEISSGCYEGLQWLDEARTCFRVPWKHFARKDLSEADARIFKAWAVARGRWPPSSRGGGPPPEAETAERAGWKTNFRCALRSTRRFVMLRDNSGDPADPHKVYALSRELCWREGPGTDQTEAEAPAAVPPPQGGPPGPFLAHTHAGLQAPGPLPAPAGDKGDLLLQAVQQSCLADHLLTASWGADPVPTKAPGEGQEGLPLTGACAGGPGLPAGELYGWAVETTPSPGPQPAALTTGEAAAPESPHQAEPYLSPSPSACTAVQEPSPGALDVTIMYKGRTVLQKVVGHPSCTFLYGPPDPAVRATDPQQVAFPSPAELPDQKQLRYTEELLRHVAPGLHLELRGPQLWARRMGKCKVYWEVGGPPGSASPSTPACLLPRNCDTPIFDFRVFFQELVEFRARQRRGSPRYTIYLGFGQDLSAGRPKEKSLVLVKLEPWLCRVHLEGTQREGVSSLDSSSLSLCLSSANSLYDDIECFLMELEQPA
Method: protein-binding microarray
Molecule type: double-stranded DNA, one strand shown
Sample: in vitro
Concentration: 250 nM
Setting: 60-bp whole probe
Together with: salmon DNA 0.4 mg/ml
Relative to: random background probes
Reading: higher = stronger binding
Shared flanks, not repeated: GCCTAGCAC … GTCTTGATTCGCTTGACGCTGCTG
| Oligonucleotide | log fluorescence |
| --- | --- |
| GACGATCTCCGTTTCGAGACGTGCTAG | 1.13 z-score |
| GCTCCTTTTAATTTTTAACGGTGCTAG | 2.34 z-score |
| GACGGTTCCGGTTCCGGGACGTGCTAG | 3.1 z-score |
| TTAGGACTGCTTTACCTTTAGTGCTAG | 1.8 z-score |
| TACTTTCTTTTTTTCTTTTAGTGCTAG | 4.46 z-score |
| TCAAGTCCCCTCTTCTGACTGTGCTAG | 0.691 z-score |
| TTAGGGTTCGGTTCCGGTTAGTGCTAG | 4.13 z-score |
| TCAGTTTTCTTTTCCATTTTGTGCTAG | 5.18 z-score |
| TTAGGTCTCGGTCTCGGCTAGTGCTAG | 1.22 z-score |
| AGTCCGTGGATTGACCAGATGTGCTAG | -0.384 z-score |
| TGCATCGTAAGCAAAAATGAGTGCTAG | -0.0263 z-score |
| GACGGTATCGGACTGGAGACGTGCTAG | -0.542 z-score |
| TTAGGACTGCTTTTCCCTTAGTGCTAG | 1.41 z-score |
| GACGGTAACGGTTTCGGGACGTGCTAG | 3.45 z-score |
| CTTAGTATTTTTTTCCAGAGGTGCTAG | 0.723 z-score |
| TCAACTCTCTGCTTGTAACTGTGCTAG | -0.0459 z-score |
| TCAGAAATCGGTGATCAGACTGTGCTA | -0.483 z-score |
| TTAGGTTTCCTTTTCCTTTAGTGCTAG | 6.53 z-score |
| TTTCACACTGTCCAGCAGGTGTGCTAG | 0.915 z-score |

Block 3
Target: CCNE2, cyclin fold, Cln2 fusion (human)
Method: yeast growth competition, sequencing
Sample: yeast
Setting: strong parent motif
Relative to: not given
Reading: higher = stronger binding
Parent: TICRR docking peptide (human); TKVRRNLFNQELL; partner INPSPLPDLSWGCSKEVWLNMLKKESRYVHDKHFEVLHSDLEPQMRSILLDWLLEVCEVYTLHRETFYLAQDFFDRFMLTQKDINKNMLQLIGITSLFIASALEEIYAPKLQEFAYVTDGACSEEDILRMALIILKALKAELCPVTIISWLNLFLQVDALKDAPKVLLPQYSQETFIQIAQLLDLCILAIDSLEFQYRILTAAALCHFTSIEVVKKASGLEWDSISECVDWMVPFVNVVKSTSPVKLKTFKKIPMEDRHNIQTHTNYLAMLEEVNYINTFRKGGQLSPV
| Substitution | normalised enrichment score |
| --- | --- |
| TKVRRNLLNQELL [F8L] | 0.987 |
| TKVRRALFNQELL [N6A] | 1.73 |
| AKVRRNLFNQELL [T1A] | 1.54 |
| TKVARNLFNQELL [R4A] | 0.63 |
| TKVRRNLANQELL [F8A] | -0.5 |
| TAVRRNLFNQELL [K2A] | 2.81 |
| TKVRRNLFNQALL [E11A] | 1.95 |

Block 4
Target: Fragile X messenger ribonucleoprotein 1, C-terminal low-complexity region (Fmr1, Mus musculus, UniProt P35922)
Method: RNA Bind-n-Seq
Molecule type: RNA
Sample: in vitro
Concentration: 200 nM
Setting: whole 134-nt RNA, ends assumed
Together with: 150 mM KCl
Relative to: input library
Reading: higher = stronger binding
Shared flanks, not repeated: GGGAGUUCUACAGUCCGACGAUC … UGGAAUUCUCGGGUGUCAAGG
| Oligonucleotide | log2 enrichment |
| --- | --- |
| UCCUGUGCUACACAUCGUAUGUACCGAAUCGGGGAAAAAGGGGAAAAAGGGGAAAGGGGAAAGUAUUAUGUUACGCCGUUCGGAUCUGCA | 0.465 |
| UAACUUUAGAGGAGGAUCUGAUGGAGAUGGCAGUGGACGUGGAUUUGGGGAUGGCUAUAAUGGGUAUGGAGGAGGACCUGGAGGUGGCAA | 0.461 |
| UCCUGUGCUACACAUCGUAUGUACCGAAUCGGGGUUUGGGGUUUUUUUGGGGAAAGGGGAAAGUAUUAUGUUACGCCGUUCGGAUCUGCA | 0.937 |
| CAAGUCCUGUGCUACACAUCGUAUGUACCGAAUCGGGCCGGGGCCGGGGCCGGGGAAAGUAUUAUGUUACGCCGUUCGGAUCUGCACUUC | -0.163 |
| GCAGGAAGUAAAAACAAAUGGAAAUGCUUCGGAUAGUGGCAGGGGUGGGGGUUGCCAAGGAAAGGGUGGGAUGGGAGUGGGUAAAGAGUU | 0.116 |
| UGGCCCUGGUGGCAUGCGGGGAGGAAGAGGUGGCCUCAUGUAUCGUGGUGGUCCCGGUGGAAUGUUCAGAGGUGGCCGUGGUGGAGACAG | -0.121 |
| CUCAAGUCCUGUGCUACACAUCGUAUGUACCGAAUCGGGAAGGAAGGGAAGGGGAAAGUAUUAUGUUACGCCGUUCGGAUCUGCACUUCC | 0.292 |
| CCUGUGCUACACAUCGUAUGUACCGAAUCGGGGAAAGGGGAAAAAGGGGAAAAAAAGGGGAAAGUAUUAUGUUACGCCGUUCGGAUCUGC | 0.0388 |
| UAACUUUAGAGGAGGAUCUGAUGGAUAUGGCAGUAGACGUGGAUUUGGGGAUGGCUAUAAUGGGUAUGGAGGAGGACCUGGAGGUGGCAA | 0.332 |

Repeated from above (block 2):
| Oligonucleotide | log fluorescence |
| --- | --- |
| TCAACTCTCTGCTTGTAACTGTGCTAG | -0.0459 z-score |
| TACTTTCTTTTTTTCTTTTAGTGCTAG | 4.46 z-score |
| TCAAGTCCCCTCTTCTGACTGTGCTAG | 0.691 z-score |
| GACGATCTCCGTTTCGAGACGTGCTAG | 1.13 z-score |
| GACGGTTCCGGTTCCGGGACGTGCTAG | 3.1 z-score |
| TTAGGTTTCCTTTTCCTTTAGTGCTAG | 6.53 z-score |
